Measured values collected from several papers.
Lines come from different studies, so protocols differ. “And” joins repeats or separate records; there may be more than shown. ≈ marks a conversion by molar mass, not a printed value.

| SMILES | organism | assay | system | conditions | how to read | quantity | result |
| --- | --- | --- | --- | --- | --- | --- | --- |
| CC[C@H](C)[C@H](NC(=O)[C@H](C)NC(=O)[C@H](CCCCN)NC(=O)[C@H](CC(C)C)NC(=O)[C@H](C)NC(=O)[C@@H](NC(=O)[C@H](Cc1c[nH]cn1)NC(=O)[C@H](CC(C)C)NC(=O)[C@@H](NC(=O)[C@@H](NC(=O)[C@H](CCCCN)NC(=O)[C@H](C)NC(=O)[C@H](C)NC(=O)[C@H](CO)NC(=O)[C@H](CCCCN)NC(=O)[C@H](Cc1ccccc1)NC(=O)[C@@H](NC(=O)[C@H](CCCCN)NC(=O)[C@H](CC(C)C)NC(=O)[C@H](Cc1ccccc1)NC(=O)[C@H](CO)NC(=O)[C@H](CCCCN)NC(=O)[C@H](Cc1c[nH]c2ccccc12)NC(=O)[C@H](CCCCN)NC(C)=O)[C@@H](C)O)[C@@H](C)O)C(C)C)[C@@H](C)O)C(=O)N[C@@H](CO)C(=O)N[C@@H](CO)C(N)=O | Enterobacter cloacae |  |  | 40 strains |  | MBC90 | 32 µg/mL (≈ 10.9 µM) |
| NS(=O)(=O)c1ccc(NN=C2C(=O)Nc3ccc(C(=O)NCCCn4ccnc4)cc32)cc1 | Aspergillus fumigatus |  |  | 20 µM | relative to: untreated | metabolic activity | ≥ 80% |
| Cn1cnc2c(F)c(Nc3ccc(Br)cc3Cl)c(C(=O)NOCCO)cc21 | murine hepatitis virus | viral replication, nanoluciferase reporter | DBT | 1 µM, 10 h | relative to: DMSO vehicle | inhibition | 11% |
| N#Cc1ccc2c(ccc3oc([N+](=O)[O-])cc32)c1 | Enterobacter cloacae | REMA |  |  |  | MIC90 | 32 µg/mL (≈ 134 µM) |
| Cn1c(=O)ccc2ccc(F)c(CCNC[C@H]3CN(c4cnc5c(n4)NC(=O)CO5)C(=O)O3)c21 | Morganella morganii |  |  |  |  | MIC50 | 0.12 µg/mL (≈ 0.256 µM) |
| CC(=O)N1CCN(c2ccc(OCC3COC(Cn4ccnc4)(c4ccc(Cl)cc4Cl)O3)cc2)CC1 (stereo not shown) | Candida albicans | broth microdilution | 17546, RPMI 1640-MOPS | 48 h, 30 °C |  | MIC | 32 µM (≈ 17 µg/mL) |
| COc1ccc2ccc3oc([N+](=O)[O-])cc3c2c1Br | Enterobacter cloacae | REMA |  |  |  | MIC90 | 0.25 µg/mL (≈ 0.776 µM) |
| Cn1cc(-c2ccc3nnc(Sc4ccc5ncccc5c4)n3n2)cn1 | murine hepatitis virus | viral replication, nanoluciferase reporter | DBT | 1 µM, 10 h | relative to: DMSO vehicle | inhibition | -2% |
| C=C(CC[C@@H](C)[C@H]1CC[C@H]2[C@@H]3CCC4=CC(=O)CC[C@]4(C)[C@H]3CC[C@]12C)C(C)C | Leishmania mexicana | parasite growth, Giemsa stain count | C57BL/6 mouse bone marrow-derived macrophages, amastigotes | 48 h |  | IC50 | 3.5 µM |
| N=C(N)NCCC[C@H](NC(=O)CN)C(=O)N[C@@H](Cc1c[nH]c2ccccc12)C(=O)N[C@@H](CCCNC(=N)N)C(=O)N[C@@H](Cc1c[nH]c2ccccc12)C(=O)N[C@@H](Cc1c[nH]c2ccccc12)C(=O)N[C@@H](Cc1c[nH]c2ccccc12)C(=O)N[C@@H](CCCNC(=N)N)C(=O)N[C@@H](Cc1c[nH]c2ccccc12)C(=O)N[C@@H](CCCNC(=N)N)C(=O)N[C@@H](Cc1ccccc1)C(N)=O | Candida albicans |  | CGMCC 2.209 | no added salts |  | MIC | 8 µM |
| CC1(C)CC(=O)c2c(C(F)(F)F)nn(-c3ccc(C(N)=O)c(N[C@H]4CC[C@H](O)CC4)c3)c2C1 | human alphaherpesvirus 1 |  | K26 GFP, 3D skin equivalent, submerged |  | relative to: CC50 over IC50 | selectivity index | 22.8 |
| CO/N=C(\C(=O)N[C@@H]1C(=O)N2C(C(=O)O)=C(CSC(=O)c3ccco3)CS[C@H]12)c1csc(N)n1 | Staphylococcus aureus |  | CAAS-2019-19 clinical blaZ-resistant isolate, PBS |  |  | MBC | 32 µg/mL |
| CN1CCN(c2cnc3c(C4CCN(C(=O)c5ccc(OC(F)(F)F)cc5N)CC4)ncnc3c2)CC1 | murine hepatitis virus | viral replication, nanoluciferase reporter | DBT | 1 µM, 10 h | relative to: DMSO vehicle | inhibition | 23% |
| CC(C)C[C@H](NC(=O)[C@H](CCCNC(=N)N)NC(=O)[C@H](Cc1c[nH]c2ccccc12)NC(=O)[C@H](CCCNC(=N)N)NC(=O)[C@H](Cc1c[nH]c2ccccc12)NC(=O)[C@H](Cc1c[nH]c2ccccc12)NC(=O)[C@H](Cc1c[nH]c2ccccc12)NC(=O)[C@H](CCCNC(=N)N)NC(=O)[C@H](Cc1c[nH]c2ccccc12)NC(=O)[C@@H](N)CCCNC(=N)N)C(N)=O | Candida albicans | broth microdilution | 17546, RPMI 1640-MOPS | 48 h, 30 °C |  | MIC | 8 µM (≈ 13.5 µg/mL) |
| CCCCCCCCCCCCCCCC(=O)CP(=O)(O)O | Bacillus cereus |  | 1056 |  |  | MIC90 | 0.05 µg/mL (≈ 0.15 µM) |
| COC(=O)C1=C(C)NC(C)=C(C(=O)OC(C)(C)CN(C)CCC(c2ccccc2)c2ccccc2)C1c1cccc([N+](=O)[O-])c1 (stereo not shown) | Aspergillus fumigatus | Alamar blue |  | 15.6 µg/mL, 48 h, added: caspofungin 0.2 µg/mL |  | metabolic activity | 26.1% and 20.1% |
| CS(=O)(=O)CCCn1c(Cn2c(=O)n(CC(F)(F)F)c3ccncc32)cc2cc(Cl)ccc21 | respiratory syncytial virus | RT-qPCR | hospitalized infants 1-24 months, nasal swab | oral, 8 mg/kg daily, day 4, cohort 6-24 months | relative to: baseline | LS mean viral load change | -0.58 log10 copies/mL |
| COc1ccccc1-c1cc(Nc2cccc(CS(N)(=O)=O)c2)ncn1 | murine hepatitis virus | viral replication, nanoluciferase reporter | DBT | 1 µM | relative to: DMSO vehicle | inhibition | -17% |
| CC(C)COC(=O)c1ccc2c(c1)/C(=C/Nc1ccc(S(N)(=O)=O)cc1)C(=O)N2 | Aspergillus fumigatus |  |  | 20 µM | relative to: untreated | metabolic activity | ≥ 80% |
| O=C1c2ccc(Nc3ccc(F)cc3F)cc2CCc2ccc(OC[C@H](O)CO)cc21 | murine hepatitis virus | viral replication, nanoluciferase reporter | DBT | 1 µM, 10 h | relative to: DMSO vehicle | inhibition | 19% |
| Nc1ncnc2c1ncn2[C@@H]1O[C@@H]2COP(=O)(O)O[C@H]3[C@@H](O)[C@H](n4cnc5c(=O)[nH]cnc54)O[C@@H]3COP(=O)(O)O[C@H]2[C@H]1O | Zika virus | downregulated Reactome pathway, RNA sequencing, refers to: Cell junction organization (R-HSA-446728) | HFF-1 |  | relative to: ZIKV-infected untreated | fold enrichment | 7.05 |
| O=C(NCc1ccccc1)c1ccc(S(=O)(=O)NCc2ccccc2)cc1 | murine hepatitis virus | viral replication, nanoluciferase reporter | DBT | 1 µM | relative to: DMSO vehicle | inhibition | 31% |
| CC[C@H](C)C[C@H](C)CCCCCCCCC(=O)N[C@H]1C[C@@H](O)[C@@H](NCCN)NC(=O)[C@@H]2[C@@H](O)CCN2C(=O)[C@H]([C@H](O)CCN)NC(=O)[C@H]([C@H](O)[C@@H](O)c2ccc(O)cc2)NC(=O)[C@@H]2C[C@@H](O)CN2C(=O)[C@H]([C@@H](C)O)NC1=O | Candida parapsilosis | broth dilution | ATCC 22099 | 48 h, 37 °C |  | MFC | 4 µg/mL (≈ 3.66 µM) |
| CNc1nc(-c2ccc3c(N)n[nH]c3c2)cc(N2C[C@@H](C(=O)NC3CCCCC3)CC[C@H]2C)n1 | murine hepatitis virus | viral replication, nanoluciferase reporter | DBT | 1 µM, 10 h | relative to: DMSO vehicle | inhibition | 35% |
| CCCC(CCC)C(=O)Nc1ccccc1O | Artemia franciscana | LC-MS/MS metabolomics, refers to: 1-aminocyclopropanecarboxylic acid | larvae | concentration not given, 48 h | relative to: vehicle | fold change | 1.01 |

A few entries again:
| SMILES | organism | assay | system | conditions | how to read | quantity | result |
| --- | --- | --- | --- | --- | --- | --- | --- |
| Cn1cc(-c2ccc3nnc(Sc4ccc5ncccc5c4)n3n2)cn1 | murine hepatitis virus | viral replication, nanoluciferase reporter | DBT | 1 µM, 10 h | relative to: DMSO vehicle | inhibition | -2% |
| C=C(CC[C@@H](C)[C@H]1CC[C@H]2[C@@H]3CCC4=CC(=O)CC[C@]4(C)[C@H]3CC[C@]12C)C(C)C | Leishmania mexicana | parasite growth, Giemsa stain count | C57BL/6 mouse bone marrow-derived macrophages, amastigotes | 48 h |  | IC50 | 3.5 µM |
